Measured values pooled from the literature.
Each line is one published result; not all experiments were run side by side. Several values in a cell are separate wells, animals, samples, runs or records. Numbers after ± are the reported error.

SMILES | test | system | setting | how to read | endpoint | value
COc1cnc2cccc(N3CCc4c(cc(Cn5ccnc5)cc4-c4cn(C)nc4C(F)(F)F)C3=O)c2c1 | – | BALB/c nude mice, MV4-11 xenograft | intraperitoneal, 75 mg/kg, day 24 | – | body weight | 21.7 g and 25.7 g and 23 g and 23.5 g and 20.9 g and 22.6 g and 22.2 g and 23.2 g
CCCCCCCCCCCCCCCC(=O)N[C@@H](CCC(=O)NCCOCCOCCC(=O)NCCOCCOCCC(=O)NCCCC[C@H](NC(=O)[C@H](CC(=O)O)NC(=O)[C@H](CC(C)C)NC(=O)[C@H](Cc1ccc(O)cc1)NC(=O)[C@H](CCCCN)NC(=O)[C@H](CO)NC(=O)[C@H](Cc1ccc(O)cc1)NC(=O)[C@H](CC(=O)O)NC(=O)[C@H](CO)NC(=O)[C@@H](NC(=O)[C@H](Cc1ccccc1)NC(=O)[C@@H](NC(=O)CNC(=O)[C@H](CCC(N)=O)NC(=O)[C@@H](CO)NC(=O)[C@@H](N)Cc1c[nH]cn1)[C@@H](C)O)[C@@H](C)O)C(=O)N[C@@H](CCCNC(=N)N)C(=O)N[C@@H](CCCNC(=N)N)C(=O)N[C@@H](C)C(=O)N[C@@H](CCC(N)=O)C(=O)N[C@@H](CC(=O)O)C(=O)N[C@@H](Cc1ccccc1)C(=O)N[C@H](C(=O)N[C@@H](CCC(N)=O)C(=O)N[C@@H](Cc1c[nH]c2ccccc12)C(=O)N[C@@H](CC(C)C)C(=O)N[C@@H](CC(C)C)C(=O)N[C@@H](CC(N)=O)C(=O)N[C@H](C(=O)NCC(=O)NCC(=O)N1CCC[C@H]1C(=O)N[C@@H](CO)C(=O)N[C@@H](CO)C(=O)NCC(=O)N[C@@H](C)C(=O)N1CCC[C@H]1C(=O)N1CCC[C@H]1C(=O)N1CCC[C@H]1C(=O)N[C@@H](CO)C(N)=O)[C@@H](C)O)C(C)C)C(=O)O | item: ALT | Sprague-Dawley rat, female | subcutaneous, 20 µg/kg once daily, 14 days | – | serum enzyme activity | 30.6 ± 4 U/L
O=C1NC2(CC2)COc2ncc(F)cc2[C@H]2COCCN2c2ccn3ncc1c3n2 | – | Sprague-Dawley rat, female, serum | oral, 20 mg/kg/day, end of treatment, 4-week repeated-dose toxicity | – | albumin/globulin ratio | 1.11 ± 0.35
Cn1nc(NS(C)(=O)=O)c2c(Cl)ccc(-n3c([C@H](Cc4cc(F)cc(F)c4)NC(=O)Cn4nc(C(F)F)c5c4C(F)(F)[C@@H]4C[C@H]54)nc4nc(OCCC(F)(F)F)ccc4c3=O)c21 | – | human, plasma | oral, 25 mg single dose, powder in bottle, median | – | tmax | 12 h
CCN(CC)CCOc1ccc(-c2nnn(Cc3ccc(OC)cc3)c2N)cc1 | – | Sprague-Dawley rat | oral, once daily, 4 weeks | – | STD10 | 100 mg/kg
N#[11C]c1ccc(-c2csc(NN=C3CCCC3)n2)cc1 | – | C57BL/6 mouse, male | intravenous, 3 MBq, 15 min | – | uptake in testis | 1.12 ± 0.05 %ID/g
C=Cc1c(C)c2cc3nc(c(CC(=O)[O-])c4[n-]c(cc5nc(cc1[n-]2)C(C)=C5CC)c(C)c4C(=O)[O-])C(CCC(=O)[O-])C3C.[Cu+2].[Na+].[Na+].[Na+] (stereo not shown) | – | BALB/c mouse | oral, acute single dose | – | maximum tolerated dose | > 5000 mg/kg bw
CC[C@H](C)[C@H](NC(=O)CNC(=O)[C@H](Cc1c[nH]cn1)NC(=O)[C@H](CC(C)C)NC(=O)CNC(=O)[C@H](CC(C)C)NC(=O)[C@H](CCCCN)NC(=O)[C@H](Cc1ccccc1)NC(=O)[C@H](CC(C)C)NC(=O)[C@H](CCCCN)NC(=O)CNC(=O)[C@H](Cc1c[nH]c2ccccc12)NC(=O)[C@H](Cc1ccccc1)NC(=O)CN)C(=O)NCC(=O)N[C@@H](CC(C)C)C(=O)N[C@@H](CC(C)C)C(=O)N[C@@H](Cc1c[nH]cn1)C(=O)N[C@@H](CC(C)C)C(=O)N[C@@H](Cc1c[nH]cn1)C(=O)N[C@@H](CC(C)C)C(N)=O | – | zebrafish embryos 28 hpf, E3 medium | 24 h | – | chronic toxic concentration | 1 µM
CC[C@H](C)[C@H](NC(=O)[C@H](Cc1c[nH]c2ccccc12)NC(=O)[C@H](Cc1ccc(O)cc1)NC(=O)[C@H](CCCCN)NC(=O)[C@H](CC(C)C)NC(=O)[C@@H](N)CO)C(=O)N[C@@H](CCCNC(=N)N)C(=O)N[C@@H](Cc1ccc(O)cc1)C(=O)N[C@@H](CCCCN)C(=O)N[C@@H](CCCNC(=N)N)C(=O)N[C@@H](CCC(N)=O)C(=O)NCC(=O)N[C@@H](C)C(=O)N[C@@H](C)C(=O)N[C@@H](CCCNC(=N)N)C(=O)N[C@@H](Cc1ccccc1)C(N)=O | reversed-phase UPLC | C18 column, TFA | – | – | elution acetonitrile content | 43.7%
NC1CCN(C(=O)Oc2ccc(C3CCCC4(C3)OOC3(O4)C4CC5CC(C4)CC3C5)cc2)CC1 (racemic) | – | male Sprague-Dawley rat, plasma | intravenous, 10 mg/kg | – | C0 | 2210 ng/mL
CC(C)=CCC/C(C)=C\CCn1cc(CC(P(=O)(O)O)P(=O)(O)O)nn1 | – | CD-1 mouse, plasma | intravenous, 0.5 mg/kg, single dose | – | C0 | 351 ng/mL
CC[C@H](C)[C@H](NC(=O)[C@H](CCCCN)NC(=O)CNC(=O)[C@H](CC(C)C)NC(=O)[C@H](Cc1ccccc1)NC(=O)[C@H](CCCCN)NC(=O)[C@H](CO)NC(=O)[C@H](Cc1ccccc1)NC(=O)[C@H](Cc1c[nH]c2ccccc12)NC(=O)[C@H](CCC(N)=O)NC(=O)[C@@H](NC(=O)[C@H](Cc1ccccc1)NC(=O)CCCCCNC(=O)CN1CCN(CC(=O)O)CCN(CC(=O)O)CCN(CC(=O)O)CC1)C(C)C)C(=O)N[C@@H](CCC(=O)O)C(=O)N1CCC[C@H]1C(=O)N[C@H](CC(=O)O)C(=O)N[C@H](C(=O)N[C@@H](CO)C(=O)N[C@@H](CCC(N)=O)C(=O)N[C@H](C(=O)N[C@@H](CCC(N)=O)C(=O)N[C@@H](CC(=O)O)C(=O)N1CCC[C@H]1C(=O)N[C@@H](CC(N)=O)C(=O)N[C@@H](CC(=O)O)C(=O)N[C@@H](CCC(N)=O)C(=O)N[C@@H](Cc1ccc(O)cc1)C(=O)N[C@@H](CCC(=O)O)C(=O)N1CCC[C@H]1C(=O)N[C@@H](Cc1ccccc1)C(=O)O)C(C)C)C(C)C [copper-64 labelled] | – | C57BL/6 mice, male, MC-38 tumour-bearing, spleen | 2 h, vehicle-treated | – | tissue uptake | 1.06 ± 0.1 %ID/g
C/C(=N\OCCCN1CCCCC1)c1ccc(C(F)(F)F)cc1 | – | mouse, plasma | oral, 50 mg/kg twice daily, day 1 | – | Cmax | 826 ± 155 ng/mL
O=C(CN1C(=O)C2(CCN(C(=O)c3ccc4[nH]ncc4n3)CC2)c2c(Br)cccc21)NCC(F)(F)F | – | C57BL/6 mice, male | oral, 10 mg/kg | – | oral bioavailability | 23 ± 7%
CCc1nn(C)c2nc(-c3ccc(C(=O)O)cc3)nc(NCc3ccccc3)c12 | – | NSG mice | dose not given, day 2 | – | body weight | 19.8 g and 21.6 g and 22.5 g and 19.5 g
CSCC[C@H](N)C(=O)N[C@@H](C)C(=O)N[C@@H](Cc1c[nH]c2ccccc12)C(=O)N[C@@H](Cc1c[nH]cn1)C(=O)N[C@@H](CC(=O)O)C(=O)N[C@@H](CC(=O)O)C(=O)N[C@@H](CCC(=O)O)C(=O)N[C@@H](CCC(=O)O)C(=O)N[C@@H](Cc1ccccc1)C(=O)N[C@@H](C)C(=O)N[C@@H](CCCNC(=N)N)C(=O)N[C@@H](CCCNC(=N)N)C(=O)N[C@@H](CCCNC(=N)N)C(=O)N[C@@H](CCCNC(=N)N)C(=O)NCCCCCC(=O)NCCCCC(NC(=O)CCCCCNC(=O)[C@H](CCCNC(=N)N)NC(=O)[C@H](CCCNC(=N)N)NC(=O)[C@H](CCCNC(=N)N)NC(=O)[C@H](CCCNC(=N)N)NC(=O)[C@H](C)NC(=O)[C@H](Cc1ccccc1)NC(=O)[C@H](CCC(=O)O)NC(=O)[C@H](CCC(=O)O)NC(=O)[C@H](CC(=O)O)NC(=O)[C@H](CC(=O)O)NC(=O)[C@H](Cc1c[nH]cn1)NC(=O)[C@H](Cc1c[nH]c2ccccc12)NC(=O)[C@H](C)NC(=O)[C@@H](N)CCSC)C(=O)NCCCCC(NC(=O)C(CCCCNC(=O)CCCCCNC(=O)[C@H](CCCNC(=N)N)NC(=O)[C@H](CCCNC(=N)N)NC(=O)[C@H](CCCNC(=N)N)NC(=O)[C@H](CCCNC(=N)N)NC(=O)[C@H](C)NC(=O)[C@H](Cc1ccccc1)NC(=O)[C@H](CCC(=O)O)NC(=O)[C@H](CCC(=O)O)NC(=O)[C@H](CC(=O)O)NC(=O)[C@H](CC(=O)O)NC(=O)[C@H](Cc1c[nH]cn1)NC(=O)[C@H](Cc1c[nH]c2ccccc12)NC(=O)[C@H](C)NC(=O)[C@@H](N)CCSC)NC(=O)CCCCCNC(=O)[C@H](CCCNC(=N)N)NC(=O)[C@H](CCCNC(=N)N)NC(=O)[C@H](CCCNC(=N)N)NC(=O)[C@H](CCCNC(=N)N)NC(=O)[C@H](C)NC(=O)[C@H](Cc1ccccc1)NC(=O)[C@H](CCC(=O)O)NC(=O)[C@H](CCC(=O)O)NC(=O)[C@H](CC(=O)O)NC(=O)[C@H](CC(=O)O)NC(=O)[C@H](Cc1c[nH]cn1)NC(=O)[C@H](Cc1c[nH]c2ccccc12)NC(=O)[C@H](C)NC(=O)[C@@H](N)CCSC)C(N)=O (stereo partly shown) | – | C57BL/6 mouse female, brain | dose not given, 3 h | relative to: total | mean tissue distribution | 0.52%

A few entries again:
SMILES | test | system | setting | how to read | endpoint | value
CCN(CC)CCOc1ccc(-c2nnn(Cc3ccc(OC)cc3)c2N)cc1 | – | Sprague-Dawley rat | oral, once daily, 4 weeks | – | STD10 | 100 mg/kg
